Measurements gathered from unrelated publications.
Lines come from different studies, so protocols differ. ± gives the spread as reported.
PYL8: PYL8 (Arabidopsis thaliana, UniProt Q9FGM1)
USP20 ZnF-UBD domain: Ubiquitin carboxyl-terminal hydrolase 20, ZnF-UBD domain (USP20, Homo sapiens, UniProt Q9Y2K6)
CGAS catalytic domain; with DNA: Cyclic GMP-AMP synthase, catalytic domain; with DNA (CGAS, Homo sapiens, UniProt Q8N884)

COc1cc(F)c([C@@H]2CNC(=O)[C@H]2NC(=O)Nc2ccccc2)c(F)c1 — EC50 (Formyl peptide receptor 2 (Mus musculus, UniProt O88536); Gαi2 activation, agonist, BRET; HEK293 expressing mouse FPR2): 0.001 µM
O=C(Cc1cc(C2CC2)c(-n2cc(CNC(=O)c3ccc(Br)o3)nn2)c(C2CC2)c1)NC1(C(=O)O)CCCCC1 — EC50 (PYL8; phosphatase activity recovery, antagonist; together with: HAB1, ABA 5000 nM): 0.596 ± 0.114 µM
COc1cc(Nc2ncc3c(n2)-c2ccc(Cl)cc2C(c2c(F)cccc2OC)=NC3)ccc1C(=O)NCCOCCOCCNC(=O)COc1cccc2c1C(=O)N(C1CCC(=O)NC1=O)C2=O (centres unmarked) — EC50 (Interleukin-1 receptor-associated kinase 3 (IRAK3, Homo sapiens, UniProt Q9Y616); binding, kinobead competition; MV4-11 cell lysate): > 30 µM
O=C(Cc1cc(C2CC2)c(-n2cc(CNC(=O)c3ccc4ccccc4n3)nn2)c(C2CC2)c1)NC1(C(=O)O)CCCCC1 — EC50 (PYL8; phosphatase activity recovery, antagonist; together with: HAB1, ABA 5000 nM): 0.202 ± 0.046 µM
Nc1nc2c(ncn2[C@@H]2O[C@@H]3COP(=O)(O)O[C@H]3[C@H]2O)c(=O)[nH]1 — EC50 (Cone cGMP-gated channel (Morone saxatilis, UniProt Q3I0N1+Q3I0N2); channel current, agonist, suction electrode; Morone saxatilis cone outer segments; together with: 0.2 µM Ca2+): 142 µM
C[N+](C)(C)CCO — EC50 (Chrnd/Chrna1/Chrne (Mus musculus, UniProt P02716+P04756+P20782, G173K/S470W); cell-based): 220 µM
O=C(O)c1cccnc1Nc1cccc(C(F)(F)F)c1 — EC50 (BK channel alpha subunit (Cavia porcellus, UniProt A0A286XP95); delayed rectifier K+ current, activator; dispersed vascular smooth muscle cells, guinea pig, MA arteriole; at +40 mV): 246 µM
CCCCC[C@H](O)/C=C/[C@H]1[C@H](O)CC(=O)[C@@H]1C/C=C\CCCC(=O)O — EC50 (Prostaglandin E2 receptor EP1 subtype (PTGER1, Homo sapiens, UniProt P34995, E134A); IP1 accumulation, agonist; AD293; EP1 E134A mutant): 0.00113 µM
O=C(O)c1ccc(S(=O)(=O)N2CCCCC2)cc1 — EC50 (Transient receptor potential cation channel subfamily V member 2 (Trpv2, Rattus norvegicus, UniProt Q9WUD2); calcium influx, agonist, Fura-2 fluorescence; Pichia pastoris membrane vesicles): 16 µM
O=C(Cc1cc(C2CC2)c(-n2cc(CNC(=O)c3csc(Br)c3)nn2)c(C2CC2)c1)NC1(C(=O)O)CCCCC1 — EC50 (PYL8; phosphatase activity recovery, antagonist; together with: HAB1, ABA 5000 nM): 0.287 ± 0.033 µM
O=C(Nc1ccn(Cc2ccc(O)cc2C(F)(F)F)n1)c1c(F)cccc1F — EC50 (Potassium voltage-gated channel subfamily KQT member 3 (KCNQ3, Homo sapiens, UniProt O43525); channel activity, agonist; cells overexpressing channel): > 10 µM
O=C(O)CCc1ccno1 — Kd (USP20 ZnF-UBD domain): > 1000 µM
CCn1c(-c2nc3ccc(C(=O)N4CCCC(N)C4)cc3n2C)cc2ccccc21 (centres unmarked) — EC50 (Acetylcholine receptor subunit alpha (CHRNA1, Homo sapiens, UniProt P02708); agonist, intracellular Ca2+ fluorescence): > 50.1 µM
CCCCCCCCCCCCC/C=C/[C@@H](O)[C@@H](N)COP(=O)(O)O — EC50 (Sphingosine 1-phosphate receptor 4 (S1PR4, Homo sapiens, UniProt O95977); agonist, cell-based): 0.251 µM
CCn1c(-c2nc3cc(C(=O)N4CCC[C@@H](N)C4)cc(OC)c3n2C)cc2cccnc21 — EC50 (Cannabinoid receptor 2 (CNR2, Homo sapiens, UniProt P34972); agonist, yeast FDGlu reporter; yeast): > 31.6 µM
CC(=O)c1cc([N+](=O)[O-])c(Sc2cccc(Cl)c2Cl)s1 — EC50 (Ubiquitin carboxyl-terminal hydrolase 15 (USP15, Homo sapiens, UniProt Q9Y4E8); enzyme activity, inhibitor): > 50 µM
O=C(COP(=O)(O)O)[C@@H](O)[C@H](O)[C@H](O)COP(=O)(O)O — EC50 (Pyruvate kinase PKM (PKM, Homo sapiens, UniProt P14618); enzyme activity, activator; with AIM): 0.246 ± 0.085 µM
Cc1ccc(C(=O)NCc2cn(-c3c(C4CC4)cc(CC(=O)NC4(C(=O)O)CCCCC4)cc3C3CC3)nn2)o1 — EC50 (PYL8; phosphatase activity recovery, antagonist; together with: HAB1, ABA 5000 nM): 0.765 ± 0.233 µM
NCC(=O)O — EC50 (Sodium- and chloride-dependent glycine transporter 2 (Homo sapiens, UniProt Q9Y345); transport current, substrate, two-electrode voltage clamp; Xenopus laevis oocytes): 18 ± 1.2 µM
O=C(O)CCc1nc2ccccc2c2nc(Cc3ccccc3)nn12 — Kd (USP20 ZnF-UBD domain): > 1000 µM
O=C(Cc1cc(C2CC2)c(-n2cc(CNC(=O)c3cccc4c3OC(F)(F)O4)nn2)c(C2CC2)c1)NC1(C(=O)O)CCCCC1 — EC50 (PYL8; phosphatase activity recovery, antagonist; together with: HAB1, ABA 5000 nM): 0.303 ± 0.052 µM
Cc1nn(-c2nc3ccccc3s2)c(O)c1C(c1ccccc1C(=O)O)c1c(C)nn(-c2nc3ccccc3s2)c1O — EC50 (CGAS catalytic domain; with DNA; cGAS-DNA phase separation, inhibitor): 0.277 µM
O=C(Cc1cc(C2CC2)c(-n2cc(CNC(=O)c3cnc(Br)s3)nn2)c(C2CC2)c1)NC1(C(=O)O)CCCCC1 — EC50 (PYL8; phosphatase activity recovery, antagonist; together with: HAB1, ABA 5000 nM): 0.573 ± 0.131 µM
Cc1cc(Nc2ncc(Cl)c(Nc3ccccc3S(=O)(=O)C(C)C)n2)c(OC(C)C)cc1C1CCNCC1 — EC50 (Metalloendopeptidase OMA1, mitochondrial (OMA1, Homo sapiens, UniProt Q96E52); luciferase reporter activation, Luke-S1 protease reporter; human cells): 10.6 µM
Cc1nn(-c2nc3c(F)cc(F)cc3s2)c(O)c1C(c1ccccc1C(F)(F)F)c1c(C)nn(-c2nc3c(F)cc(F)cc3s2)c1O — EC50 (CGAS catalytic domain; with DNA; cGAS phase separation, inhibitor): 5.78 µM
O=C(Cc1cc(C2CC2)c(-n2cc(CNC(=O)c3cnc4ccccc4n3)nn2)c(C2CC2)c1)NC1(C(=O)O)CCCCC1 — EC50 (PYL8; phosphatase activity recovery, antagonist; together with: HAB1, ABA 5000 nM): 0.172 ± 0.046 µM
